Results gathered from unrelated publications.
Each numbered part is a random draw from the data of one study; scales do not carry over between parts. Several values in a cell are separate wells, animals, samples, runs or records.
UniProt Q00532, sequence (whole entry, looked up): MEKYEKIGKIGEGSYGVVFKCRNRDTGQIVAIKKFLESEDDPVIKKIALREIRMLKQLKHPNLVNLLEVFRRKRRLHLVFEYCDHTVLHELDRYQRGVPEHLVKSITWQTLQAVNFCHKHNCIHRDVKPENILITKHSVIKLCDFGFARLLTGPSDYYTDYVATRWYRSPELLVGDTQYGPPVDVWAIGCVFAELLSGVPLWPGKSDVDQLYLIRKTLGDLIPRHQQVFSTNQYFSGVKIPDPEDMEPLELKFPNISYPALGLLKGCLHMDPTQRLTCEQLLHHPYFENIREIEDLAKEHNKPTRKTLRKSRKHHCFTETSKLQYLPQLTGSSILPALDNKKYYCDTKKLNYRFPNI
UniProt Q9H2G2, sequence (whole entry, looked up): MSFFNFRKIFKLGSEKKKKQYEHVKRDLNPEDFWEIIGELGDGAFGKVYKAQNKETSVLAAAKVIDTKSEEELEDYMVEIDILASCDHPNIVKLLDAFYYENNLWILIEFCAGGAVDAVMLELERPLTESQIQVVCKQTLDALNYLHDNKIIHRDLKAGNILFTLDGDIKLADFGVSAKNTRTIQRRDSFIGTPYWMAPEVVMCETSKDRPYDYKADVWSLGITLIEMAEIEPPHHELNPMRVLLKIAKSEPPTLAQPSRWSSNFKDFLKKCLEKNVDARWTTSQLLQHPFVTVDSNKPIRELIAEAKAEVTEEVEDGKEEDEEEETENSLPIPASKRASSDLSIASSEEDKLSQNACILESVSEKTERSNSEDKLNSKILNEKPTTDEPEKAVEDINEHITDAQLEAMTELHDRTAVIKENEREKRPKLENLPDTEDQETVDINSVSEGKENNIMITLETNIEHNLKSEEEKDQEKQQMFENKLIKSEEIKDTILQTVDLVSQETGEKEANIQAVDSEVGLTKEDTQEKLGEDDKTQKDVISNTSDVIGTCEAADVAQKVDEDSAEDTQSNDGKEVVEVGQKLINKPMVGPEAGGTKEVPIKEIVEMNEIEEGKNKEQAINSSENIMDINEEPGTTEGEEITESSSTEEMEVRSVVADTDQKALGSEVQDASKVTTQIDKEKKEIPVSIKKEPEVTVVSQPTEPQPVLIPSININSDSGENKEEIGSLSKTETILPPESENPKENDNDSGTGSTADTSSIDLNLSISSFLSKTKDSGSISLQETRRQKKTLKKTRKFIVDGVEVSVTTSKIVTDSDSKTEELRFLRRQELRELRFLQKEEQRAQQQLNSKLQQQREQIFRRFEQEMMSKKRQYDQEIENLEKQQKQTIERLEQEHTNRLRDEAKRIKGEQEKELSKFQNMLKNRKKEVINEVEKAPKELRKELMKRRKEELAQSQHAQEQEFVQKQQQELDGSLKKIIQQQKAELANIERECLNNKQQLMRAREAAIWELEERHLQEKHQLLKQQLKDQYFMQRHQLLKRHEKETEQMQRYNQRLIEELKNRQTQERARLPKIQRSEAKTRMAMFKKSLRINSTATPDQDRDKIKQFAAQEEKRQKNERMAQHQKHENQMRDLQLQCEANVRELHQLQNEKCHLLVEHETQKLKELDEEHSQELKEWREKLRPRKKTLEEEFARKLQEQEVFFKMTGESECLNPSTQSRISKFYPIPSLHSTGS
UniProt O14965, sequence (whole entry, looked up): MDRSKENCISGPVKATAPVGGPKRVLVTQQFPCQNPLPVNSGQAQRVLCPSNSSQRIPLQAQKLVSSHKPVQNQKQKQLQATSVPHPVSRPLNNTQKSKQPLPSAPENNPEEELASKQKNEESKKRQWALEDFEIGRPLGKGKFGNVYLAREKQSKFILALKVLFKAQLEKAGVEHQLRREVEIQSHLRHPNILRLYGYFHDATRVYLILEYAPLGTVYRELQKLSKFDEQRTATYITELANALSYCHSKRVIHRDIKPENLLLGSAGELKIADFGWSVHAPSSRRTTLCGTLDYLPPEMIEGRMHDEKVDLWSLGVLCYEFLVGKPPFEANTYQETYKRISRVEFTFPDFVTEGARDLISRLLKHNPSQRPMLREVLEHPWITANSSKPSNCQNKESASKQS
UniProt Q8IU85, sequence (whole entry, looked up): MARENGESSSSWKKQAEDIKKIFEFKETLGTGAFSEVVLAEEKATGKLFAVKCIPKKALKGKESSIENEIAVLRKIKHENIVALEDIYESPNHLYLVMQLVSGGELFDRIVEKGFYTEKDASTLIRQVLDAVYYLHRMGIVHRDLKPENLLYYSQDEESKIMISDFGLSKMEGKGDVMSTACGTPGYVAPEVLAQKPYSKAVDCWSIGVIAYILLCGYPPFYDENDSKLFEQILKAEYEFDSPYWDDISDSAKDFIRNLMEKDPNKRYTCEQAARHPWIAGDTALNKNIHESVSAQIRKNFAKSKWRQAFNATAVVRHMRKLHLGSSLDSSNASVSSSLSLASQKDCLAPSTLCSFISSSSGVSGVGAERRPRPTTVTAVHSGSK
UniProt P41279, sequence (whole entry, looked up): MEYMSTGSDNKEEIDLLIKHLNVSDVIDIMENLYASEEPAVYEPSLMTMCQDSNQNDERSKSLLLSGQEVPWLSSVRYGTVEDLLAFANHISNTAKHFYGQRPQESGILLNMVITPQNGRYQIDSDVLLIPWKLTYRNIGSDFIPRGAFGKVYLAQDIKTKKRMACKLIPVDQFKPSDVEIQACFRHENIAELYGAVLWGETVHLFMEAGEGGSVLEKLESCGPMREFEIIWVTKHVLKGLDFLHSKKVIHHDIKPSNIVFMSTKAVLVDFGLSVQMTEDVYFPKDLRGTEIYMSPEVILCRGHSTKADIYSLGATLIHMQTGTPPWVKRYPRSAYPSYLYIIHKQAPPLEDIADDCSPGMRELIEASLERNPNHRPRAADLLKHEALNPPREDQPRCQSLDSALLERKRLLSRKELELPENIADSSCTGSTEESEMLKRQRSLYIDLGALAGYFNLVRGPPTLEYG
UniProt Q14289, sequence (whole entry, looked up): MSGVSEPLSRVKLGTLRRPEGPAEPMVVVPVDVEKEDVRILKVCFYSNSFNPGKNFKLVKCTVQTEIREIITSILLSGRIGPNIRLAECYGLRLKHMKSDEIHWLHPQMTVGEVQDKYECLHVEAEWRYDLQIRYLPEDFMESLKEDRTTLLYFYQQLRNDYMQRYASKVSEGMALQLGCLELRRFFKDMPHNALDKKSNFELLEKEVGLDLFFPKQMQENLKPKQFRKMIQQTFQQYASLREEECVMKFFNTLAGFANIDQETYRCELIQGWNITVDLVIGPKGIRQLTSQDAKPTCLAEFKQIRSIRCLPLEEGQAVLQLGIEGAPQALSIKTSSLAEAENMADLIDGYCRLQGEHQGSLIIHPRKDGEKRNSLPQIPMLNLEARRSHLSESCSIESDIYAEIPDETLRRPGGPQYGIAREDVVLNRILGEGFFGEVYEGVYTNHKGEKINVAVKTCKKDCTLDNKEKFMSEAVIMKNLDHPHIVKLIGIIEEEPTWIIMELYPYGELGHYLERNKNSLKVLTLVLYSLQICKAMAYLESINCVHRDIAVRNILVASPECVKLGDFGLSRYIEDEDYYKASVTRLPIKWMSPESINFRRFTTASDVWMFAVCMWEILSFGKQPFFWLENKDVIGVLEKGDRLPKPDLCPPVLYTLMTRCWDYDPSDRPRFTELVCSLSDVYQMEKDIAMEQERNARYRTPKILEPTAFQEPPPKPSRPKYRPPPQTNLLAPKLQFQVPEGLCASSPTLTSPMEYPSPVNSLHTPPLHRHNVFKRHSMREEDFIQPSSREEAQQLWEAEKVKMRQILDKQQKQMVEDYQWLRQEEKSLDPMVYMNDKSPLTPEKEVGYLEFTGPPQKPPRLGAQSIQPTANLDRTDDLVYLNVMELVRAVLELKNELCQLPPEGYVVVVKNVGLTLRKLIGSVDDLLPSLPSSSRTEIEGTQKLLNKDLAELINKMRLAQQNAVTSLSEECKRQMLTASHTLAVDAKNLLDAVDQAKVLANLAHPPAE
UniProt Q8TD19, sequence (whole entry, looked up): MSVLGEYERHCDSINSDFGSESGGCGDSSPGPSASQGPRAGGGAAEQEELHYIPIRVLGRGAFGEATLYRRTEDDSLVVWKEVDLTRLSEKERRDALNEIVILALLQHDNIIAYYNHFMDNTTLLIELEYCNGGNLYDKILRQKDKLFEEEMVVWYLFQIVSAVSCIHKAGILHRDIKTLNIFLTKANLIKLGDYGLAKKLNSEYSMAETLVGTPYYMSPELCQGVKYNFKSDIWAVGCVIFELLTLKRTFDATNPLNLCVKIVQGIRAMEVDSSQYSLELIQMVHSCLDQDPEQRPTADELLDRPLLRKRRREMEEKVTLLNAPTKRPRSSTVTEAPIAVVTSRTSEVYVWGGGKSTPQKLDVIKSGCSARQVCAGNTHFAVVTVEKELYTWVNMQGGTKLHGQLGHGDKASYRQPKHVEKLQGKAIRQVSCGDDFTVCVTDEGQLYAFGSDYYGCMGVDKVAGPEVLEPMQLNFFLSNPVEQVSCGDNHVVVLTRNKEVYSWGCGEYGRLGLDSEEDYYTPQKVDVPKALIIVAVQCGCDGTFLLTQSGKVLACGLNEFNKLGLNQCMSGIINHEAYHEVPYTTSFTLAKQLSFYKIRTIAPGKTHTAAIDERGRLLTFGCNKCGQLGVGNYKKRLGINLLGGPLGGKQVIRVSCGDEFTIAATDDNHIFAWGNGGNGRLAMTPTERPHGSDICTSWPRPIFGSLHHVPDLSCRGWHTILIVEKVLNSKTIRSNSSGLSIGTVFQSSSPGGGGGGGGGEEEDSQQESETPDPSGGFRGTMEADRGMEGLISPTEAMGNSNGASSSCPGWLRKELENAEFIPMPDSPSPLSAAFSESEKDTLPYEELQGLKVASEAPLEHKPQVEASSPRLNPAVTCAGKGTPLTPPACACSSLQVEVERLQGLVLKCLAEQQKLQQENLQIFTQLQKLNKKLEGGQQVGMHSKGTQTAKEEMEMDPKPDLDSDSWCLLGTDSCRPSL

Sample 1
Organism: Sarcocystis neurona
Read-out: parasite growth
Tested at: 10 µM
Reference: untreated
SMILES | log2 fold change
C[C@H]1C[C@H]2[C@@H]3CCC4=CC(=O)C=C[C@]4(C)[C@@]3(Cl)[C@@H](O)C[C@]2(C)[C@@]1(O)C(=O)CO | -0.05
CCC1=C[C@@H]2CN(C1)Cc1c([nH]c3ccccc13)[C@@](C(=O)OC)(c1cc3c(cc1OC)N(C)[C@H]1[C@@](O)(C(=O)OC)[C@H](OC(C)=O)[C@]4(CC)C=CCN5CC[C@]31[C@@H]54)C2.O=C(O)C(O)C(O)C(=O)O.O=C(O)C(O)C(O)C(=O)O | -0.23
CN1CCc2cc(Cl)c(O)cc2[C@@H](c2ccccc2)C1.Cl | 0.36
CN1CCN(c2c(F)cc3c(=O)c(C(=O)O)cn4c3c2SCC4)CC1.Cl | 0.3
Br.O=C1CC2(CCCC2)CC(=O)N1CCNCC1COc2ccccc2O1 (stereo not shown) | -0.48
C[C@]12CCC(=O)C=C1CC[C@@H]1[C@@H]2CC[C@@]2(C)[C@H]1CC[C@]2(O)C(=O)CO | -0.32
CN[C@@H]1[C@H](O)[C@H](NC)[C@H]2O[C@@]3(O)C(=O)C[C@@H](C)O[C@H]3O[C@@H]2[C@H]1O.Cl.Cl | 0.29
CC(C)(C)NCC(O)c1ccc(O)c(CO)c1.CC(C)(C)NCC(O)c1ccc(O)c(CO)c1.O=S(=O)(O)O (stereo not shown) | 0.26
CC1CCN(CCCC(=O)c2ccc(F)cc2)CC1.Cl | 0.26
NS(=O)(=O)c1cc2c(cc1C(F)(F)F)NC(Cc1ccccc1)NS2(=O)=O (stereo not shown) | 0.28
Cc1nccn1CC1CCc2c(c3ccccc3n2C)C1=O.Cl (stereo not shown) | 0.26
CC(C)[N+](C)(CCOC(=O)C1c2ccccc2Oc2ccccc21)C(C)C.[Br-] | 0.37

Sample 2
SMILES: COc1cc2ncnc(Nc3ccc(OCc4ccccc4)cc3)c2cc1OC
Read-out: enzyme activity
Action: inhibitor
Tested at: 0.5 µM
Reference: control
target | remaining activity [%]
Casein kinase II subunit alpha' (CSNK2A2, Homo sapiens, UniProt P19784) | 95.3
Mitogen-activated protein kinase 10 (MAPK10, Homo sapiens, UniProt P53779) | 84.5
Calcium/calmodulin-dependent protein kinase type 1G (CAMK1G, Homo sapiens, UniProt Q96NX5) | 97.1
Proto-oncogene tyrosine-protein kinase receptor Ret (RET, Homo sapiens, UniProt P07949) | 89.1
Homeodomain-interacting protein kinase 3 (HIPK3, Homo sapiens, UniProt Q9H422) | 85.3
Epidermal growth factor receptor (EGFR, Homo sapiens, UniProt P00533) | 21.3
STE20-like serine/threonine-protein kinase (SLK, Homo sapiens, UniProt Q9H2G2) | 76.4
Aurora kinase A (AURKA, Homo sapiens, UniProt O14965) | 91.3
Mitogen-activated protein kinase kinase kinase 8 (MAP3K8, Homo sapiens, UniProt P41279) | 90.1
Serine/threonine-protein kinase BRSK1 (BRSK1, Homo sapiens, UniProt Q8TDC3) | 103
Rho-associated protein kinase 2 (ROCK2, Homo sapiens, UniProt O75116) | 96
Cyclin-dependent kinase 7 (CDK7, Homo sapiens, UniProt P50613) | 98.8
Protein-tyrosine kinase 2-beta (PTK2B, Homo sapiens, UniProt Q14289) | 99.8
Cyclin-dependent kinase 2, with cyclin A (CDK2, Homo sapiens, UniProt P24941) | 100
Myotonin-protein kinase (DMPK, Homo sapiens, UniProt Q09013) | 104
Proto-oncogene tyrosine-protein kinase ROS (ROS1, Homo sapiens, UniProt P08922) | 98
Serine/threonine-protein kinase N2 (PKN2, Homo sapiens, UniProt Q16513) | 94.1
Serine/threonine-protein kinase D1 (PRKD1, Homo sapiens, UniProt Q15139) | 101
Dual specificity tyrosine-phosphorylation-regulated kinase 4 (DYRK4, Homo sapiens, UniProt Q9NR20) | 97.6
Calcium/calmodulin-dependent protein kinase type 1D (CAMK1D, Homo sapiens, UniProt Q8IU85) | 104
Serine/threonine-protein kinase Nek9 (NEK9, Homo sapiens, UniProt Q8TD19) | 104
Mitogen-activated protein kinase kinase kinase 2 (MAP3K2, Homo sapiens, UniProt Q9Y2U5) | 113
NT-3 growth factor receptor (NTRK3, Homo sapiens, UniProt Q16288) | 93.8
G protein-coupled receptor kinase 5 (GRK5, Homo sapiens, UniProt P34947) | 105

Sample 3
SMILES: CC(=O)N1CCC(c2ccc(C(=O)NC(=N)N)cc2C(F)(F)F)CC1
Read-out: cell-free assay
Method: competition with immobilised ligand
Tested at: 1 µM
target | remaining binding [%]
Phosphatidylinositol 4-phosphate 3-kinase C2 domain-containing subunit beta (PIK3C2B, Homo sapiens, UniProt O00750) | 95
Ribosomal protein S6 kinase alpha-3, N-terminal kinase domain (RPS6KA3, Homo sapiens, UniProt P51812) | 95
TRAF2 and NCK-interacting protein kinase (TNIK, Homo sapiens, UniProt Q9UKE5) | 100
Ribosomal protein S6 kinase alpha-2, C-terminal kinase domain (RPS6KA2, Homo sapiens, UniProt Q15349) | 97
Serine/threonine-protein kinase Nek10 (NEK10, Homo sapiens, UniProt Q6ZWH5) | 92
Tyrosine-protein kinase ABL1, non-phosphorylated (ABL1, Homo sapiens, UniProt P00519) | 93
Mast/stem cell growth factor receptor Kit (KIT, Homo sapiens, UniProt P10721, L576P) | 92
Cyclin-dependent kinase-like 1 (CDKL1, Homo sapiens, UniProt Q00532) | 100
Serine/threonine-protein kinase DCLK3 (DCLK3, Homo sapiens, UniProt Q9C098) | 98
Tyrosine-protein kinase Srms (SRMS, Homo sapiens, UniProt Q9H3Y6) | 80
Epidermal growth factor receptor (EGFR, Homo sapiens, UniProt P00533, G719S) | 96

Sample 4
SMILES: Cn1cnc(Cn2ccc3ccc(CNCc4[nH]c5ccccc5c4[C@H]4NC(=O)c5ccc(O)cc54)cc32)c1
Read-out: binding
Action: competitor
Method: NanoBRET
Cell line: HEK293
KRAS: GTPase KRas (KRAS, Homo sapiens, UniProt P01116)
KRAS G12C: GTPase KRas (KRAS, Homo sapiens, UniProt P01116, G12C)
target | tested at | time | reference | normalized BRET
KRAS | 6.67 µM | – | – | 3.27% and 2.4% and 3.59% and 2.87%
KRAS G12C | 741 nM | 1 h | vehicle and 20 µM BI compound | 49.9% and 54.4% and 57.1% and 51.9%
KRAS G12C | 20 µM | 4 h | vehicle and 20 µM BI compound | 0.36% and 0.58% and 1.71% and -2.64%
KRAS | 82.2 nM | – | – | 83.3% and 135% and 100% and 99.5%
KRAS | 27.4 nM | – | – | 82.6% and 100% and 104% and 93.5%

For quick reference, copied from above (sample 2):
target | remaining activity [%]
Serine/threonine-protein kinase N2 (PKN2, Homo sapiens, UniProt Q16513) | 94.1
Serine/threonine-protein kinase D1 (PRKD1, Homo sapiens, UniProt Q15139) | 101
Dual specificity tyrosine-phosphorylation-regulated kinase 4 (DYRK4, Homo sapiens, UniProt Q9NR20) | 97.6
Calcium/calmodulin-dependent protein kinase type 1D (CAMK1D, Homo sapiens, UniProt Q8IU85) | 104
Serine/threonine-protein kinase Nek9 (NEK9, Homo sapiens, UniProt Q8TD19) | 104
Mitogen-activated protein kinase kinase kinase 2 (MAP3K2, Homo sapiens, UniProt Q9Y2U5) | 113
